Results pooled from the literature.
Every numbered part comes from another study and shows a few of its results, in no order. “And” joins repeats or separate records; there may be more than shown.
UniProt P49674, sequence (whole entry, looked up): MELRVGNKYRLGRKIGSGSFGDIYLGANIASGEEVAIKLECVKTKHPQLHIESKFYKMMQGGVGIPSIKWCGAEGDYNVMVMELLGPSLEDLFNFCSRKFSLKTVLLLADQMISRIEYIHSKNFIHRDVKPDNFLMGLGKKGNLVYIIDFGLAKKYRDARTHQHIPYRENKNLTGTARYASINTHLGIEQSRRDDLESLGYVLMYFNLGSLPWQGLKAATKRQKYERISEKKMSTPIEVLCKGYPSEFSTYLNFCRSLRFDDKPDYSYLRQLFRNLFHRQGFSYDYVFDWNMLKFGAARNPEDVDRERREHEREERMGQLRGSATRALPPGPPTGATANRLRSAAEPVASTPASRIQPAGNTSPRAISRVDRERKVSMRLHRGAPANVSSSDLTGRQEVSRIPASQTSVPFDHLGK
UniProt Q13153, sequence (whole entry, looked up): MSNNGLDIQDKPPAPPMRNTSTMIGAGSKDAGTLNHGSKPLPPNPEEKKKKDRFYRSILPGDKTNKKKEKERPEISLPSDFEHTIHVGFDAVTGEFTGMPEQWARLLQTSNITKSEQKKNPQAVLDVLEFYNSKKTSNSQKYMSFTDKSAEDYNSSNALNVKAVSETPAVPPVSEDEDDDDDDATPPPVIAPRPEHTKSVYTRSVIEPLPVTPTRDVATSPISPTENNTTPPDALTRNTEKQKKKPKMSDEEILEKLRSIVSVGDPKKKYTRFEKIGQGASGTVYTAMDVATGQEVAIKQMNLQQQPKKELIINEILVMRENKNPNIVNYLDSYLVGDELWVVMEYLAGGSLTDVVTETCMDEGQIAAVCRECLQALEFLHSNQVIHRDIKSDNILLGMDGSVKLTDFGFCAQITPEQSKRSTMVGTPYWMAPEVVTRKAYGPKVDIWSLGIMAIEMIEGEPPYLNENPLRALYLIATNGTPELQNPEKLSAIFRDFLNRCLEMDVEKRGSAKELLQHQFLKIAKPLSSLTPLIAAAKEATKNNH
UniProt Q9HBY8, sequence (whole entry, looked up): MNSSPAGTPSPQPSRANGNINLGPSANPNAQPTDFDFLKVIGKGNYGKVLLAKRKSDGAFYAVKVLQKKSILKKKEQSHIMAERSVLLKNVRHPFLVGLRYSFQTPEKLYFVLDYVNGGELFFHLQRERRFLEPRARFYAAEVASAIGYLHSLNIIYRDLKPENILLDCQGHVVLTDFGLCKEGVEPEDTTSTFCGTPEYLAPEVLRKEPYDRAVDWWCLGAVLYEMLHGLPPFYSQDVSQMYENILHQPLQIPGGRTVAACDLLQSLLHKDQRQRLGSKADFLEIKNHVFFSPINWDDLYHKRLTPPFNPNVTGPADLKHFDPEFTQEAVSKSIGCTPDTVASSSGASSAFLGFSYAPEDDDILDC
UniProt P49760, sequence (whole entry, looked up): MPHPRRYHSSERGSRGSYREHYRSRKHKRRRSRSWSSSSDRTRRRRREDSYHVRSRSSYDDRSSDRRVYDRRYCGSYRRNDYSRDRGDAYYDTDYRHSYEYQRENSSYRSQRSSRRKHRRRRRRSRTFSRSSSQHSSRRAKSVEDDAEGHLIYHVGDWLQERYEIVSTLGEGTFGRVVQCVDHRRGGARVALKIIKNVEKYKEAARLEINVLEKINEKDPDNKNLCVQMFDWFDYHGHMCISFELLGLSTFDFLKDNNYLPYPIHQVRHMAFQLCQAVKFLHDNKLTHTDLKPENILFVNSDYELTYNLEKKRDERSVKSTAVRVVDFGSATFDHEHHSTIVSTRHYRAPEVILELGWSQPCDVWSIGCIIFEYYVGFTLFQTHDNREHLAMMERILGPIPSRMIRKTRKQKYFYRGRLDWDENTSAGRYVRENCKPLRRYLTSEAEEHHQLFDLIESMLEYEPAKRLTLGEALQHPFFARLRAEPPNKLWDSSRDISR
UniProt P42680, sequence (whole entry, looked up): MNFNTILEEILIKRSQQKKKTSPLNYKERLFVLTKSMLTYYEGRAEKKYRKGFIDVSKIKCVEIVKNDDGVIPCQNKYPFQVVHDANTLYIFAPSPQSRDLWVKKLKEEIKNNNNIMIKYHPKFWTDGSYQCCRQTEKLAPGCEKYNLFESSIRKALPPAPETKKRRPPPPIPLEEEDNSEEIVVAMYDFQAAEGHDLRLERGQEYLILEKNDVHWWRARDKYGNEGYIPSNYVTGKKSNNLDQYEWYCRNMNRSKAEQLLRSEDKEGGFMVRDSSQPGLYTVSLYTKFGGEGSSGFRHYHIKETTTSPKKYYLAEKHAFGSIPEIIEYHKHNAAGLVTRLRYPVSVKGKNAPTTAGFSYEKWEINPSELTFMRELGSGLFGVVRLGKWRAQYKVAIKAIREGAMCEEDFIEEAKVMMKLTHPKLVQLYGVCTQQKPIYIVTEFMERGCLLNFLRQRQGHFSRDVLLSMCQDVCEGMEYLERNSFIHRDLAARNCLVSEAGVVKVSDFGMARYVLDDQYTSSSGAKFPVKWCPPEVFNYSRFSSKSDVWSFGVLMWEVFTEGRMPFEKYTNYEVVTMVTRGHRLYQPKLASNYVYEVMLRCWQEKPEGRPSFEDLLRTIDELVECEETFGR
UniProt Q96SB4, sequence (whole entry, looked up): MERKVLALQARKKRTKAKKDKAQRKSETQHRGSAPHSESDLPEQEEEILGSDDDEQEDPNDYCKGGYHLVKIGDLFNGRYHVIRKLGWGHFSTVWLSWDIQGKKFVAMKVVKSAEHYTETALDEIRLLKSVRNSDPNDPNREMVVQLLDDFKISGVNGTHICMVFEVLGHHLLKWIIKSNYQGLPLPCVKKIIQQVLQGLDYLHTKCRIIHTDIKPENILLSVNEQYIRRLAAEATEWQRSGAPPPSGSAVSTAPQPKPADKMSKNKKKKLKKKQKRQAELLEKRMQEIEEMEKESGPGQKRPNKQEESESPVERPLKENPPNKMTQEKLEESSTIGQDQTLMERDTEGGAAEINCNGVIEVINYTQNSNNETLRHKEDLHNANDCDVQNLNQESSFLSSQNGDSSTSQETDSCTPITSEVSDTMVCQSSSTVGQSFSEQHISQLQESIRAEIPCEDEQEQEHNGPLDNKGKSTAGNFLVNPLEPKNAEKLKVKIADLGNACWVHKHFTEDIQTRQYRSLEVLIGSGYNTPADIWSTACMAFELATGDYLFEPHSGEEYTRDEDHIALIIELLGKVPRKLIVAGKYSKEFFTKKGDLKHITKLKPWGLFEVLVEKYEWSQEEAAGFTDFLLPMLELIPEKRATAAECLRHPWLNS
UniProt P48730, sequence (whole entry, looked up): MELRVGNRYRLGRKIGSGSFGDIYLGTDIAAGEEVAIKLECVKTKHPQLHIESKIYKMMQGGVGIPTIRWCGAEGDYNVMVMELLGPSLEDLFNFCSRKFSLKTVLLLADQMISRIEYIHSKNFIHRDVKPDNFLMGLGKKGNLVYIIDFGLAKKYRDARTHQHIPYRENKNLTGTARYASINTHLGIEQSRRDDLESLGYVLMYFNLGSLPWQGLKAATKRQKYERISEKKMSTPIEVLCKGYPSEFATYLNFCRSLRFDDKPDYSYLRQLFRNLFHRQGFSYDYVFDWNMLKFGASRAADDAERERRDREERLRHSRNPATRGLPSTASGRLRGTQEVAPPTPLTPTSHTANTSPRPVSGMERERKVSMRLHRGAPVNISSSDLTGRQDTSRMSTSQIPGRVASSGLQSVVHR
UniProt Q9H0K1, sequence (whole entry, looked up): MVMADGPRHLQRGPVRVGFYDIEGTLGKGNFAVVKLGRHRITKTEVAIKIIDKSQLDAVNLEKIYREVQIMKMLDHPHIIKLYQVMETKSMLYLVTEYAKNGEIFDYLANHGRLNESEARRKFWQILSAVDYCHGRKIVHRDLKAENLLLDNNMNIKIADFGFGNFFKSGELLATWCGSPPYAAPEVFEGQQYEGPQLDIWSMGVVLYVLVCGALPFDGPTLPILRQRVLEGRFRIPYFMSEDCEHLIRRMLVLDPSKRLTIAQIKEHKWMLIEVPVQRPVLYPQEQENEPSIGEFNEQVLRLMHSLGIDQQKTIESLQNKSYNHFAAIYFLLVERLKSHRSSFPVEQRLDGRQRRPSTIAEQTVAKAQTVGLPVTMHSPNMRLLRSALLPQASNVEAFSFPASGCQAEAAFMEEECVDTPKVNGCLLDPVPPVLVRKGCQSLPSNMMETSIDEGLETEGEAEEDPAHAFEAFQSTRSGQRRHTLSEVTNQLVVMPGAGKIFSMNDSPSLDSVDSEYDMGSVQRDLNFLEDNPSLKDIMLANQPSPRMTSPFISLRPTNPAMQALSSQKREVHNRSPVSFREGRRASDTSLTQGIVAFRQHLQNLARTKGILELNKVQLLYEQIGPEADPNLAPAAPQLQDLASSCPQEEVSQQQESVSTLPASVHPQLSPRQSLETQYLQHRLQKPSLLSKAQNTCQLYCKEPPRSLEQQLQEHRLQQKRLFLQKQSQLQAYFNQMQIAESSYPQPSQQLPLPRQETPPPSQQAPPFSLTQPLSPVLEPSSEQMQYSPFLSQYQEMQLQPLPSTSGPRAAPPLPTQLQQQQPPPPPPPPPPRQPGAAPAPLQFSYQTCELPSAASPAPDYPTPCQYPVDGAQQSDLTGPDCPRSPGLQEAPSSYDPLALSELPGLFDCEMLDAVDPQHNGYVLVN
UniProt P49759, sequence (whole entry, looked up): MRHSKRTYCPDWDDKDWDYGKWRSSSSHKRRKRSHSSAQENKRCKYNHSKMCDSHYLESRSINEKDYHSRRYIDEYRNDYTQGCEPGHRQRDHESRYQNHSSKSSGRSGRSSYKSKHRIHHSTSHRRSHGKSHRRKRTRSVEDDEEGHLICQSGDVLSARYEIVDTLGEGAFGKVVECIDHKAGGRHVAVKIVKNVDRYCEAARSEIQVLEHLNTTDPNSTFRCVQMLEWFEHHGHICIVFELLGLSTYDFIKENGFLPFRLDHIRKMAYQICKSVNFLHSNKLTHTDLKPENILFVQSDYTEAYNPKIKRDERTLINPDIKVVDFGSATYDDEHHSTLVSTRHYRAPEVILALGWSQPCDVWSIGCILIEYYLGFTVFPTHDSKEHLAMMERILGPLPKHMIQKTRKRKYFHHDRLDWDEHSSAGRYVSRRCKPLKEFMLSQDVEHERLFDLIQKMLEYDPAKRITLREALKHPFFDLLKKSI

Block 1
Compound: CCCOc1ccc([C@H]2[C@H](C(=O)O)[C@@H](c3ccc4c(c3)OCO4)CN2CC(=O)Nc2c(CC)cccc2CC)cc1
Technique: CellTiter-Glo
Species: human
Matrix: normal-adjacent epithelium
Concentration: 0.1 µM
Reference: DMSO
Endpoint: viability
normal organoid sample E: 128% and 116%
normal organoid sample D: 112% and 135%
normal organoid sample F: 118% and 133%

Block 2
SMILES: O=Nc1c(-c2c(O)[nH]c3ccccc23)[nH]c2ccccc12
Read-out: enzyme activity
Action: inhibitor
Concentration: 0.5 µM
Reference: control
Endpoint: remaining activity
FLT1 (Homo sapiens, UniProt P17948): 73.6%
JAK1 (Homo sapiens, UniProt P23458): 63.4%
TEC (Homo sapiens, UniProt P42680): 105%
CSNK1D (Homo sapiens, UniProt P48730): 39.3%
PAK6 (Homo sapiens, UniProt Q9NQU5): 94.4%
CAMK1 (Homo sapiens, UniProt Q14012): 83.7%
PRKCQ (Homo sapiens, UniProt Q04759): 99.1%
CAMKK1 (Homo sapiens, UniProt Q8N5S9): 53.6%
MUSK (Homo sapiens, UniProt O15146): 71.2%
RPS6KA3 (Homo sapiens, UniProt P51812): 61.4%
SGK2 (Homo sapiens, UniProt Q9HBY8): 91.8%
CLK1 (Homo sapiens, UniProt P49759): 90.9%
Cyclin-dependent kinase 2, with cyclin E (CDK2, Homo sapiens, UniProt P24941): 31.3%
CSNK1E (Homo sapiens, UniProt P49674): 46.1%
EPHA2 (Homo sapiens, UniProt P29317): 84.3%
CLK2 (Homo sapiens, UniProt P49760): 92.5%
PAK1 (Homo sapiens, UniProt Q13153): 86.1%
SIK2 (Homo sapiens, UniProt Q9H0K1): 89.8%
IGF1R (Homo sapiens, UniProt P08069): 80.2%
SRPK1 (Homo sapiens, UniProt Q96SB4): 89.3%
MAP3K20 (Homo sapiens, UniProt Q9NYL2): 89.6%
TYRO3 (Homo sapiens, UniProt Q06418): 79.6%

Block 3
Technique: logD(dd/w) and ALogP
Notes: JT method
Endpoint: lipophilic permeability efficiency
CC(C)C[C@@H]1NC(=O)[C@H](CC(C)C)NC(=O)[C@@H](C(C)C)NC(=O)[C@H](C(C)C)NC(=O)[C@@H](Cc2cscn2)NC(=O)[C@H](C)NC(=O)[C@H](CCC(=O)N2CCCC2)NC1=O: 1.51
CC(C)C[C@@H]1NC(=O)[C@H](CC(C)C)NC(=O)[C@@H](CC(C)C)NC(=O)[C@H](CC(C)C)NC(=O)[C@H](C(C)C)NC(=O)[C@H](Cc2cscn2)NC(=O)[C@H](C)NC1=O: 2.64
CC(C)C[C@@H]1NC(=O)[C@@H](C)NC(=O)[C@H](C)NC(=O)[C@@H](CC(C)C)NC(=O)[C@H](C(C)C)NC(=O)[C@H](CC(C)C)NC(=O)[C@@H](CC(C)C)NC1=O: 1.99
CC(C)C[C@@H]1NC(=O)[C@H](C(C)C)NC(=O)[C@@H](CC(C)C)NC(=O)[C@@H](CC(C)C)NC(=O)[C@H](C(C)C)NC(=O)[C@H](CC(C)C)NC(=O)[C@@H](CC(C)C)NC1=O: 3.3
CC(C)C[C@@H]1NC(=O)[C@H](CC(C)C)NC(=O)[C@H](CC(C)C)NC(=O)[C@H](CC(C)C)NC(=O)[C@H](C(C)C)NC(=O)[C@H](C)NC(=O)[C@H](C)NC1=O: 2.48
CC(C)C[C@@H]1NC(=O)[C@H](C)NC(=O)[C@H](CC(C)C)NC(=O)[C@H](C(C)C)NC(=O)[C@H](CC(C)C)NC(=O)[C@@H](CC(C)C)NC(=O)[C@H](CC(C)C)NC1=O: 2.58
CC(C)C[C@@H]1NC(=O)[C@H](CC(C)C)NC(=O)[C@@H](CC(C)C)NC(=O)[C@@H](CC(C)C)NC(=O)[C@H](C)NC(=O)[C@H](CC(C)C)NC(=O)[C@@H](CC(C)C)NC1=O: 2.87
CC(C)C[C@@H]1NC(=O)[C@H](C)NC(=O)[C@H](CCC(=O)N2CCCC2)NC(=O)[C@H](C)NC(=O)[C@H](CC(C)C)NC(=O)[C@H](CC(C)C)NC(=O)[C@@H](C(C)C)NC1=O: 1.39
CC(C)C[C@@H]1NC(=O)[C@H](C(C)C)NC(=O)[C@H](Cc2cscn2)NC(=O)[C@@H](CC(C)C)NC(=O)[C@@H](CCC(=O)N2CCCC2)NC(=O)[C@H](CC(C)C)NC(=O)[C@@H](CC(C)C)NC1=O: 2.11

Block 4
Cell line: HaCaT
Concentration: 100 µM
Time: 36 h
Endpoint: viability
CC(=O)c1ccc(O)c(C(=O)O)c1: 49.5%
O=C1NCC2(CCN(CCc3ccccc3)CC2)O1: 60.4%
NC(N)=Nc1nc(CSCCC(N)=NS(N)(=O)=O)cs1: 94.1%
OC(CCCN1CCCCC1)(c1ccccc1)c1ccccc1: 72.6%
Cc1c(N(C)CS(=O)(=O)O)c(=O)n(-c2ccccc2)n1C: 102%
CS(=O)(=O)Nc1ccc([N+](=O)[O-])cc1Oc1ccccc1: 92.8%
CC(C)=CCC/C(C)=C/C=C/C(C)=C/C=C/C(C)=C/C=C/C=C(C)/C=C/C=C(C)/C=C/C=C(\C)CCC=C(C)C: 114%
CCCCCCCCN=c1ccn(CCCCCCCCCCn2ccc(=NCCCCCCCC)cc2)cc1: 7.07%
CCCCOc1cc(C(=O)OCCN(CC)CC)ccc1N: 52%
CCC(=O)OCC(=O)[C@@]1(OC(=O)CC)[C@@H](C)C[C@H]2[C@@H]3CCC4=CC(=O)C=C[C@]4(C)[C@@]3(Cl)[C@@H](O)C[C@@]21C: 79.6%
Cc1ncc(C[n+]2csc(CCO)c2C)c(N)n1: 94.6%
CC1(C)S[C@@H]2[C@H](NC(=O)COc3ccccc3)C(=O)N2[C@H]1C(=O)O: 90.5%
COc1ccccc1N1CCN(CC(O)COc2cccc3ccccc23)CC1 (stereo not drawn): 4.32%
N=C(N/N=C/c1ccc(Cl)cc1)N/N=C/c1ccc(Cl)cc1: 7.81%
